Published values collected from several papers.
Compare with care: the assays were run in different laboratories.
HDAC3: Histone deacetylase 3 (HDAC3, Homo sapiens, UniProt O15379)
Sequence of UniProt O15379 (whole entry, looked up): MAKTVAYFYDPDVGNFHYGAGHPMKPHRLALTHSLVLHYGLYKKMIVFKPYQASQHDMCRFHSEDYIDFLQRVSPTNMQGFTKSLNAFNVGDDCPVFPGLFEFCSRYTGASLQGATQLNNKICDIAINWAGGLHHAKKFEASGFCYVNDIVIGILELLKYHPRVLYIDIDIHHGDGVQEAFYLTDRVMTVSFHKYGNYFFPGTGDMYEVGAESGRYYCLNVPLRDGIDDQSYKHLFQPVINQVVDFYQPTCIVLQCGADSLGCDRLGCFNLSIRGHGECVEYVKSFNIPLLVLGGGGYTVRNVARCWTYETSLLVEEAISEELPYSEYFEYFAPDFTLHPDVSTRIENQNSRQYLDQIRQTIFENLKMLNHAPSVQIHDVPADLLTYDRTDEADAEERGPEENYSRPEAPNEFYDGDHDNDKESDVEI
Calpain-2 catalytic subunit: Calpain-2 catalytic subunit (Homo sapiens, UniProt P17655)
Sequence of UniProt P17655 (whole entry, looked up): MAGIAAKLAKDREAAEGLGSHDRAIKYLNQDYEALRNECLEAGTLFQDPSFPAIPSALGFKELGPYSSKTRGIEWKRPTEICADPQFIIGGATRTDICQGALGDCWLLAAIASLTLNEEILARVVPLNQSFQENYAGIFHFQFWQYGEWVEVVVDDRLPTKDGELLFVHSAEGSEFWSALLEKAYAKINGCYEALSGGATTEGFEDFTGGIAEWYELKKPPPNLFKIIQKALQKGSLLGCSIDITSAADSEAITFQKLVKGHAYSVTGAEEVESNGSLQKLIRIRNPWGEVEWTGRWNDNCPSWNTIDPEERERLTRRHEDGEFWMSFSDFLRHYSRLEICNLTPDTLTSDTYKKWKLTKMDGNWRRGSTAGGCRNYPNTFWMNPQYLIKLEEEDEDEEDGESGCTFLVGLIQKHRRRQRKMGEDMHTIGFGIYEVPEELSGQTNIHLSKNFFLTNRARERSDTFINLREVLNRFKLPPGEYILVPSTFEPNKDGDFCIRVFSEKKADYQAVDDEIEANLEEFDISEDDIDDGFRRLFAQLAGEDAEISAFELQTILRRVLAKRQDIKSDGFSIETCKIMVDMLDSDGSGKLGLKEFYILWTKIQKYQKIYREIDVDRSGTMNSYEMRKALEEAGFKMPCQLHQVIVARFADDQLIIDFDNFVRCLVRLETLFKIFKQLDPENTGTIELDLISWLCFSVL
PTGS2: Prostaglandin G/H synthase 2 (PTGS2, Homo sapiens, UniProt P35354)
Sequence of UniProt P35354 (whole entry, looked up): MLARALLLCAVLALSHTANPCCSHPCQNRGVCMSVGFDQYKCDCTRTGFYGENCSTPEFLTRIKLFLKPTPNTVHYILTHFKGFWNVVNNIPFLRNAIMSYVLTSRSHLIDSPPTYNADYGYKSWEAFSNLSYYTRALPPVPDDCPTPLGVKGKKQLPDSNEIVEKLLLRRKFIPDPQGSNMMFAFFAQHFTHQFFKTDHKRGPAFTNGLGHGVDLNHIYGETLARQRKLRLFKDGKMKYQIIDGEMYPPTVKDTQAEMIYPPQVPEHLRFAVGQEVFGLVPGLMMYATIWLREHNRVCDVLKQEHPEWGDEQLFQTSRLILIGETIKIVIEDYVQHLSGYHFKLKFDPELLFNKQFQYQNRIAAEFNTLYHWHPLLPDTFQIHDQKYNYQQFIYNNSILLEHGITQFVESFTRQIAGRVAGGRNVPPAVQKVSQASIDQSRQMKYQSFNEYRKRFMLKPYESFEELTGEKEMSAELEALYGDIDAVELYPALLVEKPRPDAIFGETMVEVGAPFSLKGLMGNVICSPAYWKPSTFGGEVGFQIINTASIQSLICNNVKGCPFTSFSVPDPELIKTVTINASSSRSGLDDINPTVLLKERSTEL
P4HB: Protein disulfide-isomerase (P4HB, Homo sapiens, UniProt P07237)
Sequence of UniProt P07237 (whole entry, looked up): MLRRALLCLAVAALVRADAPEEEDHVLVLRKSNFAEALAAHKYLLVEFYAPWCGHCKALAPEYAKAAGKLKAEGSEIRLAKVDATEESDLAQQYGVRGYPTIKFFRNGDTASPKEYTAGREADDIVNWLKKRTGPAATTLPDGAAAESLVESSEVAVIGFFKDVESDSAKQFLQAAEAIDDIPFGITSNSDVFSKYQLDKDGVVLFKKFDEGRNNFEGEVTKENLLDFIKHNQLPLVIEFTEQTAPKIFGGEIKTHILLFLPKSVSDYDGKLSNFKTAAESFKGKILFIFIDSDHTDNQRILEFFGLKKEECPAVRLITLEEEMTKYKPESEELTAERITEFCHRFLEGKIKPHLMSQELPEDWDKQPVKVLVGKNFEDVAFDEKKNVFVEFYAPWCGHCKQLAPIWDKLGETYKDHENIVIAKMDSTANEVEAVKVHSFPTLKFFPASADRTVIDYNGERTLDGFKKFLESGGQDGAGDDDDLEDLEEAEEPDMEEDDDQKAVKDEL
Sequence of UniProt Q9Y251 (whole entry, looked up): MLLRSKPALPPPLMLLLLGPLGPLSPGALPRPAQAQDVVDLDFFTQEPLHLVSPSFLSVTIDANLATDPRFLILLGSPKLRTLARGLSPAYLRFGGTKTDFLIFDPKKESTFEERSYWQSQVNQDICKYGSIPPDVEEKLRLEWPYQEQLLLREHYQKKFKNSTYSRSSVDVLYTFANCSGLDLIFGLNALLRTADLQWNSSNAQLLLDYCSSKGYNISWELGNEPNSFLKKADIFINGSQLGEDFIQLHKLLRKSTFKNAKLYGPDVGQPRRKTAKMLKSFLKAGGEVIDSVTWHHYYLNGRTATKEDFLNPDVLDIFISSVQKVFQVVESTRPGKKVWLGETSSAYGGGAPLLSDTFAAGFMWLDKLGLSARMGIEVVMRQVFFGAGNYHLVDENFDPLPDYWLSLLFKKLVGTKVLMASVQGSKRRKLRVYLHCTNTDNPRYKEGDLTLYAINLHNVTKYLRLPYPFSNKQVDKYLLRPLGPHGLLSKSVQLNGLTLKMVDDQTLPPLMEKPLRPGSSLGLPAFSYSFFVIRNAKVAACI
Sequence of UniProt Q8TBC4 (whole entry, looked up): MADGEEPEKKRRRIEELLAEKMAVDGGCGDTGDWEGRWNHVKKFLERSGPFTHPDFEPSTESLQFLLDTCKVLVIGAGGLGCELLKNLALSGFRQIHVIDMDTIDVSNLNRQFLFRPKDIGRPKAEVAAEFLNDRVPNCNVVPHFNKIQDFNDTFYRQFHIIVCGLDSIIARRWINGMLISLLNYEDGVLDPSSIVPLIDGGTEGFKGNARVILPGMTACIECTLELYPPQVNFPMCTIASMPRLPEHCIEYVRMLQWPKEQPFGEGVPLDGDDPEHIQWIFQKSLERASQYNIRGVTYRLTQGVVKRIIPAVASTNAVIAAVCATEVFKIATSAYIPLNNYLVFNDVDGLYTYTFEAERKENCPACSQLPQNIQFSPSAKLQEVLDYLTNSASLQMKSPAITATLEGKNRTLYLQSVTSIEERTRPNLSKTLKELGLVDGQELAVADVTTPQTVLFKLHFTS
Sequence of UniProt P00488 (whole entry, looked up): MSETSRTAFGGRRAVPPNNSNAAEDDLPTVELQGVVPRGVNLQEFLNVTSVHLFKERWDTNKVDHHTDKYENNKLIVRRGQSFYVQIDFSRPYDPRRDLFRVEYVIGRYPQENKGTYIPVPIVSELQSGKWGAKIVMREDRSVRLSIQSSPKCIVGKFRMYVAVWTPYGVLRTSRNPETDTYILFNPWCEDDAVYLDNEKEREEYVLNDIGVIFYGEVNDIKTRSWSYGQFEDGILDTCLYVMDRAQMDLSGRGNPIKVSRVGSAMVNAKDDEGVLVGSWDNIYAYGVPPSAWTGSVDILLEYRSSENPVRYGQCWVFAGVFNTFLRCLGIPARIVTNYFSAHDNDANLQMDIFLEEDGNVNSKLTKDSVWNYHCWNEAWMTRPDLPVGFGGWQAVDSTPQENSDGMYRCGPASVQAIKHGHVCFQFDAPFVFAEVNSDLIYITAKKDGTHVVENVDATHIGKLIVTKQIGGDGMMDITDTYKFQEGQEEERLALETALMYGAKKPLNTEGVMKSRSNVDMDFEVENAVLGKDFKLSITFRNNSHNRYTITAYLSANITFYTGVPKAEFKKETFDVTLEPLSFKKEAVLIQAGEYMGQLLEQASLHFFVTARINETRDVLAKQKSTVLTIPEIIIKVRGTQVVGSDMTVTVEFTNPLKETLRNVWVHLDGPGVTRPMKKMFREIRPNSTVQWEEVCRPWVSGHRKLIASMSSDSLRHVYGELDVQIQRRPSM

Cc1cc(CN(CCCCCCC(=O)NO)Cc2ccc(F)c(C)c2)ccc1F  selectivity ratio (HDAC3; deacetylase activity, inhibitor, fluorescence; together with: Boc-Lys(Ac)-AMC substrate; baseline: IC50 HDAC3 over IC50 HDAC1): 1.4
CC(C)CCN(c1nc(C#N)nc(NC2COC2)n1)C(C)c1ccc(F)cc1 (centres unmarked)  selectivity ratio (CPL (Toxoplasma gondii, UniProt Q6DMN0); enzyme activity, inhibitor; baseline: human over Toxoplasma IC50): 0.25
CCC(NC(=O)C(CC(C)C)NC(=O)CCc1ccc(C#N)cc1)C(=O)C(=O)NCc1cc(OC)cc(OC)c1 (centres unmarked)  selectivity ratio (Calpain-2 catalytic subunit; enzyme activity, inhibitor; together with: Suc-Leu-Tyr-AMC; baseline: Ki calpain-1 over calpain-2): 1.1
NS(=O)(=O)c1ccc(-n2cc(CNc3ccccc3Cl)c(-c3ccc(OCc4ccccc4)cc3)n2)cc1  selectivity ratio (PTGS2; enzyme activity, inhibitor, TMPD chromogenic; baseline: COX-1 IC50 over COX-2 IC50): 73
CCCCCCc1ccc(S(=O)(=O)N2CC2C(=O)NC)cc1 (centres unmarked)  selectivity ratio (P4HB; insulin reduction, inhibitor; baseline: IC50 PDIA1 over IC50 PDIA3): 0.0004 to 0.0035
Cc1ccc(NCc2cn(-c3ccc(S(N)(=O)=O)cc3)nc2-c2ccc(OCc3ccccc3)cc2)cc1  selectivity ratio (PTGS2; enzyme activity, inhibitor, TMPD chromogenic; baseline: COX-1 IC50 over COX-2 IC50): 74.9
O=C(CCCCCCNCc1cccnc1)NO  selectivity ratio (HDAC3; deacetylase activity, inhibitor, fluorescence; together with: Boc-Lys(Ac)-AMC substrate; baseline: IC50 HDAC3 over IC50 HDAC1): 0.72
CCC(NC(=O)C(CC(C)C)NC(=O)CCc1ccccc1)C(=O)C(=O)NCc1cc(F)cc(OC)c1 (centres unmarked)  selectivity ratio (Calpain-2 catalytic subunit; enzyme activity, inhibitor; together with: Suc-Leu-Tyr-AMC; baseline: Ki calpain-1 over calpain-2): 4.5
COc1cccc(NCc2cn(-c3ccccc3)nc2-c2ccc(OCc3ccccc3)cc2)c1  selectivity ratio (PTGS2; enzyme activity, inhibitor, TMPD chromogenic; baseline: COX-1 IC50 over COX-2 IC50): 22
CN(C)CCNC(=O)c1cccc2c(NCCCCc3c(N)nc(N)nc3N)c3ccccc3nc12  selectivity ratio (tRNA; binding, ITC; baseline: Kd RNA A over Kd tRNA): 670
Cc1ccc(C(=O)Nc2ccc(CP(=O)(O)O)cc2CP(=O)(O)O)cc1NC(=O)c1cccc(NC(=O)Nc2cccc(C(=O)Nc3cc(C(=O)Nc4ccc(CP(=O)(O)O)cc4CP(=O)(O)O)ccc3C)c2)c1  selectivity ratio (Coagulation factor XIII A chain (F13A1, Homo sapiens, UniProt P00488); enzyme activity, inhibitor; baseline: factor XIa over factor XIIIa): > 27 fold
O=C(CCCCCCN(Cc1cccnc1)Cc1cccnc1)NO  selectivity ratio (HDAC3; deacetylase activity, inhibitor, fluorescence; together with: Boc-Lys(Ac)-AMC substrate; baseline: IC50 HDAC3 over IC50 HDAC1): 1
CCC(NC(=O)C(CC(C)C)NC(=O)NCc1ccccc1)C(=O)C(=O)NCc1cccc(OC)c1 (centres unmarked)  selectivity ratio (Calpain-2 catalytic subunit; enzyme activity, inhibitor; together with: Suc-Leu-Tyr-AMC; baseline: Ki calpain-1 over calpain-2): 1.7
CCCCCc1ccc(S(=O)(=O)N2CC2C(=O)N(C)C)cc1 (centres unmarked)  selectivity ratio (P4HB; insulin reduction, inhibitor; baseline: IC50 PDIA1 over IC50 PDIA3): 0.0004 to 0.0035
O=C(CCCCCCNCc1ccc(F)cc1)NO  selectivity ratio (HDAC3; deacetylase activity, inhibitor, fluorescence; together with: Boc-Lys(Ac)-AMC substrate; baseline: IC50 HDAC3 over IC50 HDAC1): 1.1
CC(=O)NCCO[C@H]1[C@H](O)[C@@H](O)[C@@H]2O[C@@H]2[C@@H]1C(=O)O  selectivity ratio (Heparanase (HPSE, Homo sapiens, UniProt Q9Y251); inhibitor, competitive ABPP; baseline: IC50 E. coli β-glucuronidase over HPSE): 20
CCC(NC(=O)C(CC(C)C)NC(=O)NCc1ccc(C#N)cc1)C(=O)C(=O)NCc1cc(OC)cc(OC)c1 (centres unmarked)  selectivity ratio (Calpain-2 catalytic subunit; enzyme activity, inhibitor; together with: Suc-Leu-Tyr-AMC; baseline: Ki calpain-1 over calpain-2): 1.6
O=C(CCCCCCNCc1ccc2c(c1)OCO2)NO  selectivity ratio (HDAC3; deacetylase activity, inhibitor, fluorescence; together with: Boc-Lys(Ac)-AMC substrate; baseline: IC50 HDAC3 over IC50 HDAC1): 1.3
CCC(NC(=O)C(CC(C)C)NC(=O)Nc1ccncc1)C(=O)C(=O)NCc1cc(OC)cc(OC)c1 (centres unmarked)  selectivity ratio (Calpain-2 catalytic subunit; enzyme activity, inhibitor; together with: Suc-Leu-Tyr-AMC; baseline: Ki calpain-1 over calpain-2): 1.4
Fc1ccc(NCc2cn(-c3ccccc3)nc2-c2ccc(OCc3ccccc3)cc2)cc1  selectivity ratio (PTGS2; enzyme activity, inhibitor, TMPD chromogenic; baseline: COX-1 IC50 over COX-2 IC50): 33.8
Cc1cc(CNCCCCCCC(=O)NO)ccc1F  selectivity ratio (HDAC3; deacetylase activity, inhibitor, fluorescence; together with: Boc-Lys(Ac)-AMC substrate; baseline: IC50 HDAC3 over IC50 HDAC1): 1.4
CCCCCCc1ccc(S(=O)(=O)N2CC2C(=O)N(C)C)cc1 (centres unmarked)  selectivity ratio (P4HB; insulin reduction, inhibitor; baseline: IC50 PDIA1 over IC50 PDIA3): 0.0004 to 0.0035
Clc1ccccc1NCc1cn(-c2ccccc2)nc1-c1ccc(OCc2ccccc2)cc1  selectivity ratio (PTGS2; enzyme activity, inhibitor, TMPD chromogenic; baseline: COX-1 IC50 over COX-2 IC50): 19.6
CCCC[C@H](NC(C)=O)C(=O)N[C@@H](CO)C(=O)N[C@H](C(=O)N1CCC[C@H]1C(=O)N[C@]1(C)CCCCCCC=CCCC[C@@](C)(C(=O)N[C@@H](Cc2ccccc2)C(=O)N[C@@H](CCCCN)C(=O)N[C@@H](CCCNC(=N)N)C(=O)N[C@@H](CC(C)C)C(=O)N[C@@H](CCC(N)=O)C(N)=O)NC(=O)[C@H](CCCNC(=N)N)NC(=O)[C@H](CCCC)NC(=O)[C@H](CC(C)C)NC(=O)[C@H](CCCNC(=N)N)NC(=O)[C@H](CCCNC(=N)N)NC(=O)[C@H](CCCNC(=N)N)NC1=O)[C@@H](C)O  selectivity ratio (NEDD8-activating enzyme E1 catalytic subunit, part with NAE1 (UBA3, Homo sapiens, UniProt Q8TBC4); thioester transfer to UBE2M, inhibitor; baseline: IC50 of target over UBE1): 6 fold
COc1ccc(CN(CCCCCCC(=O)NO)Cc2ccc(OC)c(OC)c2)cc1OC  selectivity ratio (HDAC3; deacetylase activity, inhibitor, fluorescence; together with: Boc-Lys(Ac)-AMC substrate; baseline: IC50 HDAC3 over IC50 HDAC1): 1.1
Clc1ccc(NCc2cn(-c3ccccc3)nc2-c2ccc(OCc3ccccc3)cc2)cc1  selectivity ratio (PTGS2; enzyme activity, inhibitor, TMPD chromogenic; baseline: COX-1 IC50 over COX-2 IC50): 47.5

A few entries again:
Cc1cc(CN(CCCCCCC(=O)NO)Cc2ccc(F)c(C)c2)ccc1F  selectivity ratio (HDAC3; deacetylase activity, inhibitor, fluorescence; together with: Boc-Lys(Ac)-AMC substrate; baseline: IC50 HDAC3 over IC50 HDAC1): 1.4
CC(C)CCN(c1nc(C#N)nc(NC2COC2)n1)C(C)c1ccc(F)cc1 (centres unmarked)  selectivity ratio (CPL (Toxoplasma gondii, UniProt Q6DMN0); enzyme activity, inhibitor; baseline: human over Toxoplasma IC50): 0.25
